Measured values of several laboratories.
Target: Serine/threonine-protein kinase SBK1 (SBK1, Homo sapiens, UniProt Q52WX2)

Compound	test	setting	how to read	endpoint	value
C=CC(=O)N1CCc2ccc(-n3c(=O)ccc4cnc5ccc(-c6cnn(C)c6)cc5c43)cc21	KINOMEscan	1 µM	baseline: DMSO control	remaining binding	42%
CNC1C[S+]2CC[S+]3CC[S+](C1)[Ru-4]321([N]=C=S)[n]2c3ccc(OC)cc3c3c4c(c5cc(F)c[n+]1c5c32)C(=O)NC4=O (stereo not shown)	KinomeScan	0.1 µM	baseline: untreated	remaining binding	92%
COc1cc(Nc2nccc(-c3cnn4nc(OC)ccc34)n2)cc(C(F)(F)F)c1	binding, competition with immobilised ligand	1 µM	–	remaining binding	84%
CCN1CCN(Cc2ccc(C(=O)Nc3ccc(C)c(NCc4cnc5[nH]ccc5c4OC)c3)cc2C(F)(F)F)CC1	binding, competition with immobilised ligand	1 µM	–	remaining binding	68%
CC(C)=CC1OC(C)(C)C2C=C3C(=O)C(Cl)=CC(O)C3C3C(O)C4OC4C(=O)C132 (stereo not shown)	cell-free assay, competition with immobilised ligand	10 µM	–	remaining binding	67%
COc1cc(Nc2nc(C)cc(-c3cnn4nc(OC)ccc34)n2)cc(C(F)(F)F)c1	binding, competition with immobilised ligand	1 µM	–	remaining binding	87%
CNC(=O)C[C@H](Cc1ccc(C#N)cc1)NC(=O)c1cc(-c2ccc(CN[C@H](C)c3ccc(C)cc3)o2)ccc1Cl	enzyme activity, inhibitor	1 µM	–	activity vs control	94%
C=CC(=O)N1CCCC(n2c(=O)c3ncccc3n(Cc3ccc(Oc4ccccc4)cc3)c2=O)C1 (stereo not shown)	cell-free assay, competition with immobilised ligand	1 µM	–	remaining binding	49%
Nc1ncc2c(n1)-c1c([nH]c3ccc(C4=CCOCC4)cc13)CCC2	binding, competition with immobilised ligand	1 µM	–	remaining binding	91%
CN1CC[C@@H](COc2cnc(C#N)cc2-c2ccn3nc(NC(=O)C4CC4)cc3c2)C1	enzyme activity, inhibitor	1 µM	–	inhibition	1%
CNC(=O)C1CCN(c2cc(C)c(F)cc2NC(=O)c2ccc(-c3cc(O)ccc3C)c(C)c2)CC1	binding, competition with immobilised ligand	1 µM	–	remaining binding	91%
CCn1cc(C(=O)O)c(=O)c2c(N)c(F)c(NC3CCCCC3)cc21	kinase activity	0.1 µM, added: ATP at Km	–	inhibition	-16.1%
Cc1ccc(-c2c(/C=C(\C#N)C(=O)NC(C)C)n(CCCO)c3ncnc(N)c23)cc1	cell-free assay, competition with immobilised ligand	1 µM	–	remaining binding	100%
O=C(Cc1ccc(OCc2ccccc2)cc1)NC1(C(=O)O)CCN(C(=O)c2ccc(-c3cccc(Cl)c3)cc2)CC1	enzyme activity, inhibitor	10 µM	–	activity vs control	103%
C=CC(=O)N1Cc2nc(-c3cc(-c4cc(Cl)cnc4Cl)c(F)cc3F)n(-c3ccncn3)c2C1	cell-free assay, inhibitor	1 µM	–	inhibition	1.4%
Nc1ncc(-c2cc(-c3cnn(CC(F)(F)F)c3)ncc2F)nc1C(=O)NC1CNCC(F)C1 (stereo not shown)	enzyme activity	1 µM	baseline: DMSO control	remaining activity	102%
COc1c(Cl)cccc1Nc1c(-c2ccncc2C#C[C@@]2(C)CCCN2C(=O)/C=C/CN(C)C)[nH]c2c1C(=O)NCC2	binding, competition with immobilised ligand	3 µM	–	remaining binding	94%
Cc1cnc2nc1Nc1cccc(c1)COC/C=C/COCc1cc(ccc1OCCN1CCOCC1)N2	binding, competition with immobilised ligand	0.1 µM	–	remaining binding	94%
CN1CCN(Cc2ccc(-c3ccc(CO[C@H]4CCC[C@@H]4NC(=O)c4cc(-c5cnn(C)c5)cnc4N)cc3)cc2)CC1	enzyme activity, inhibitor	0.1 µM	–	inhibition	10%
